Earlier results, collected from citations in different studies.
Compare with care: the assays were run in different laboratories. ± gives the spread as reported.

Compound	target	assay	system	conditions	IC50 [nM]
CNCCN(C)Cc1c[nH]nc1C1CCC2(CC1)CC(C)(C)CO2 (centres unmarked)	PRMT8				1.7
O=C1C[C@@H](c2ccc(O)cc2)Oc2cc(O)cc(O)c21	MAO-A (rat)	inhibitor			955000
CCN(CC)CCCCNc1ncc2cc(-c3cc(OC)cc(OC)c3)c(NC(=O)NC(C)(C)C)nc2n1	PKC	inhibitor			> 50000
CC(C)c1cc(C(=O)N2Cc3ccc(CN4CCN(C)CC4)cc3C2)c(O)cc1O	Hsp90 (isoform unspecified)				18
O=c1[nH]ccc2nc(N[C@@H]3CCCNC3)nc(Nc3ccc(S(=O)(=O)N4CCOCC4)cc3)c12	CSNK1G1	kinase activity, inhibitor			882
COc1cccc(-c2cc(F)ccc2[C@H]2Cc3nc(N)nc(C)c3C(=O)N2)n1	Grp94				8.5
CCN(CC)CCOC(=O)c1ccc(N)cc1	nAChR	inhibitor			45500
Nc1ncnc2c1ncn2[C@@H]1O[C@H](C[C@@H](N)CC[C@H](N)C(=O)O)[C@@H](O)[C@H]1O	NSD2	enzyme activity, inhibitor			26000 ± 4500
CC(C)=CCc1cc2c(cc1O)O[C@H](c1ccc(O)cc1)CC2=O	STAT3	phosphorylation		added: IL-6	4890
CCOC(=O)C1=C(C)NC(C)=C(C(=O)OC)C1c1cccc(Cl)c1Cl (centres unmarked)	L-type calcium channel				0.15
CC(C)[C@H](NC(=O)[C@H](Cc1cscn1)NC(=O)CCc1ccccc1)C(=O)N[C@@H](CCCNC(=N)N)C(=O)c1nc2ccccc2s1	coagulation factor Xa				323
Cc1cc(C(=O)N[C@@H](CC(=O)NC(C)(C)C)C(=O)NCCNC(=O)c2cccc(-n3cccn3)c2)no1	Plasmodium falciparum 20S proteasome	enzyme activity, inhibitor			< 100
COc1ccc(-c2nn3c(-c4ccco4)nnc3s2)cc1OC	DCTPP1				19
O=C1CSC(=S)N1	AANAT	enzyme activity			27000
COC1CCN(C(=O)c2cc(Cc3n[nH]c(=O)c4ccccc34)ccc2F)CC1	PARP3	enzyme activity, inhibitor			200
c1cc(OCCN2CCCCC2)cc(-c2n[nH]c3ccc(-c4nc[nH]n4)cc23)c1	CSNK1G1	kinase activity, inhibitor			282

Compound	target	assay	system	conditions	IC50 [nM]
COc1cc(N2CCC3(CCN(C)CC3)CC2)ccc1Nc1ncc(Cl)c(Nc2ccccc2P(C)(C)=O)n1	ALK L1196M				36
N=C(NCCCSC[C@H]1O[C@@H](n2cnc3c(N)ncnc32)[C@H](O)[C@@H]1O)Nc1ccccc1Br	PRMT5				18.2
CN1C(C(=O)Nc2ccccn2)=C(O)c2sc(Cl)cc2S1(=O)=O	NR4A1 (Nur77)	inverse agonist, cellular			9000 ± 6000
CN1CCN(c2ccc3nc(-c4c(N)c5c(F)cccc5[nH]c4=O)[nH]c3c2)CC1	PI3-K	inhibitor			> 10000
CC(C)CC(=O)Nc1[nH]nc2c1CN(C(=O)C1CCN(C)CC1)C2(C)C	human CDK7/cyclin H	kinase activity, inhibitor			10
O=C(O)/C=C/c1ccc2c(-c3ccccc3)onc2c1	IP6K2				43800
Nc1nc(N)c2[nH]c(-c3ccccc3)nc2n1	CSNK1G1	kinase activity, inhibitor			924
Nn1cnc2scc(-c3ccc(Cc4ccccc4)cc3)c2c1=O	β-arrestin 2				15600
CNS(=O)(=O)Nc1nccc(Cc2c(C)c3ccc(Oc4ncccn4)cc3oc2=O)c1F	BRAF V600E	kinase activity, inhibitor			8.2
CC(C)NCCCC[C@H](NC(=O)[C@H]1CCC(=O)N[C@@H](Cc2ccccc2)C(=O)N[C@@H](Cc2ccc(O)cc2)C(=O)N[C@@H](CCCCNC(C)C)C(=O)N[C@H](CCCNC(=N)N)C(=O)N[C@@H](Cc2ccc3ccccc3c2)C(=O)NCC(=O)N1)C(N)=O	CXCR4 (human)				27.8 ± 7.4
COc1ccc(-c2ccc3ncc4c(c3c2)n(-c2ccc(N3CCNCC3)c(C(F)(F)F)c2)c(=O)n4C)cn1	PI3K beta				63
N=C(N)c1ccc(OCCCCCCOc2ccc(C(=N)N)cc2)cc1	PRMT5				357000
C=C1C(=O)[C@]23[C@H](O)[C@H]1CC[C@H]2[C@@]12CO[C@]3(O)[C@@H](O)[C@@H]1C(C)(C)CC[C@@H]2O	NLRP3 inflammasome		THP-1	added: LPS and ATP	5200
Nc1ncnc2c1ncn2[C@@H]1O[C@H](COP(=O)(O)OP(=O)(O)OP(=O)(O)O)[C@@H](O)[C@H]1O	PKA catalytic subunit	inhibitor			20 to 60
C=C1C(=O)O[C@H]2[C@H]1CC/C(C)=C/CC[C@@]1(C)O[C@@H]21	NLRP3 inflammasome	inhibitor	BMDM	added: LPS + ATP	5000
O=c1c(O)c(-c2ccc(O)c(O)c2)oc2cc(O)cc(O)c12	dengue virus 3 NS2B-NS3 protease	enzyme activity, inhibitor		pH 9.0	22700 ± 2300

Some of these lines once more:
Compound	target	assay	system	conditions	IC50 [nM]
Nc1ncnc2c1ncn2[C@@H]1O[C@H](C[C@@H](N)CC[C@H](N)C(=O)O)[C@@H](O)[C@H]1O	NSD2	enzyme activity, inhibitor			26000 ± 4500
CC(C)=CCc1cc2c(cc1O)O[C@H](c1ccc(O)cc1)CC2=O	STAT3	phosphorylation		added: IL-6	4890
CCOC(=O)C1=C(C)NC(C)=C(C(=O)OC)C1c1cccc(Cl)c1Cl (centres unmarked)	L-type calcium channel				0.15
